{"data": "Measurements of several laboratories", "BCHE": "Cholinesterase (BCHE, Homo sapiens, UniProt P06276)", "Sterol carrier protein 2": "Sterol carrier protein 2 (Homo sapiens, UniProt P22307)", "MYH11 S1 fragment": "MYH11, S1 fragment (Gallus gallus, UniProt P10587)", "note": "Each line is one published result; not all experiments were run side by side. ± marks the error that the study gave.", "UniProt P22307, sequence (whole entry, looked up)": "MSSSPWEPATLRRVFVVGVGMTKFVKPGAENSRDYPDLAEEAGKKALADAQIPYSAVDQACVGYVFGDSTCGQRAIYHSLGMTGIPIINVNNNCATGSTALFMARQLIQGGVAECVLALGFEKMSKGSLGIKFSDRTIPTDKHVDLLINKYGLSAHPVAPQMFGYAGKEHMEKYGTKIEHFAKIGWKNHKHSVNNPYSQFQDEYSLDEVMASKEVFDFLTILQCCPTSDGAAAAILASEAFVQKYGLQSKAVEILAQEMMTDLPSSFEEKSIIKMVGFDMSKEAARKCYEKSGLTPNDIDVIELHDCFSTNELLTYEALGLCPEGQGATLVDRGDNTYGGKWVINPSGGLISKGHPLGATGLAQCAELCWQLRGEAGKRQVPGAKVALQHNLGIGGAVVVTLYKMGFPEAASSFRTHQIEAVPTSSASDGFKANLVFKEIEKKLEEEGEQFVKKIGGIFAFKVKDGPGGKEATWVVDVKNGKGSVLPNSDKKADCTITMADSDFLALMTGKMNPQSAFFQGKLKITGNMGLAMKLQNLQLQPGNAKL", "UniProt P10587, sequence (whole entry, looked up)": "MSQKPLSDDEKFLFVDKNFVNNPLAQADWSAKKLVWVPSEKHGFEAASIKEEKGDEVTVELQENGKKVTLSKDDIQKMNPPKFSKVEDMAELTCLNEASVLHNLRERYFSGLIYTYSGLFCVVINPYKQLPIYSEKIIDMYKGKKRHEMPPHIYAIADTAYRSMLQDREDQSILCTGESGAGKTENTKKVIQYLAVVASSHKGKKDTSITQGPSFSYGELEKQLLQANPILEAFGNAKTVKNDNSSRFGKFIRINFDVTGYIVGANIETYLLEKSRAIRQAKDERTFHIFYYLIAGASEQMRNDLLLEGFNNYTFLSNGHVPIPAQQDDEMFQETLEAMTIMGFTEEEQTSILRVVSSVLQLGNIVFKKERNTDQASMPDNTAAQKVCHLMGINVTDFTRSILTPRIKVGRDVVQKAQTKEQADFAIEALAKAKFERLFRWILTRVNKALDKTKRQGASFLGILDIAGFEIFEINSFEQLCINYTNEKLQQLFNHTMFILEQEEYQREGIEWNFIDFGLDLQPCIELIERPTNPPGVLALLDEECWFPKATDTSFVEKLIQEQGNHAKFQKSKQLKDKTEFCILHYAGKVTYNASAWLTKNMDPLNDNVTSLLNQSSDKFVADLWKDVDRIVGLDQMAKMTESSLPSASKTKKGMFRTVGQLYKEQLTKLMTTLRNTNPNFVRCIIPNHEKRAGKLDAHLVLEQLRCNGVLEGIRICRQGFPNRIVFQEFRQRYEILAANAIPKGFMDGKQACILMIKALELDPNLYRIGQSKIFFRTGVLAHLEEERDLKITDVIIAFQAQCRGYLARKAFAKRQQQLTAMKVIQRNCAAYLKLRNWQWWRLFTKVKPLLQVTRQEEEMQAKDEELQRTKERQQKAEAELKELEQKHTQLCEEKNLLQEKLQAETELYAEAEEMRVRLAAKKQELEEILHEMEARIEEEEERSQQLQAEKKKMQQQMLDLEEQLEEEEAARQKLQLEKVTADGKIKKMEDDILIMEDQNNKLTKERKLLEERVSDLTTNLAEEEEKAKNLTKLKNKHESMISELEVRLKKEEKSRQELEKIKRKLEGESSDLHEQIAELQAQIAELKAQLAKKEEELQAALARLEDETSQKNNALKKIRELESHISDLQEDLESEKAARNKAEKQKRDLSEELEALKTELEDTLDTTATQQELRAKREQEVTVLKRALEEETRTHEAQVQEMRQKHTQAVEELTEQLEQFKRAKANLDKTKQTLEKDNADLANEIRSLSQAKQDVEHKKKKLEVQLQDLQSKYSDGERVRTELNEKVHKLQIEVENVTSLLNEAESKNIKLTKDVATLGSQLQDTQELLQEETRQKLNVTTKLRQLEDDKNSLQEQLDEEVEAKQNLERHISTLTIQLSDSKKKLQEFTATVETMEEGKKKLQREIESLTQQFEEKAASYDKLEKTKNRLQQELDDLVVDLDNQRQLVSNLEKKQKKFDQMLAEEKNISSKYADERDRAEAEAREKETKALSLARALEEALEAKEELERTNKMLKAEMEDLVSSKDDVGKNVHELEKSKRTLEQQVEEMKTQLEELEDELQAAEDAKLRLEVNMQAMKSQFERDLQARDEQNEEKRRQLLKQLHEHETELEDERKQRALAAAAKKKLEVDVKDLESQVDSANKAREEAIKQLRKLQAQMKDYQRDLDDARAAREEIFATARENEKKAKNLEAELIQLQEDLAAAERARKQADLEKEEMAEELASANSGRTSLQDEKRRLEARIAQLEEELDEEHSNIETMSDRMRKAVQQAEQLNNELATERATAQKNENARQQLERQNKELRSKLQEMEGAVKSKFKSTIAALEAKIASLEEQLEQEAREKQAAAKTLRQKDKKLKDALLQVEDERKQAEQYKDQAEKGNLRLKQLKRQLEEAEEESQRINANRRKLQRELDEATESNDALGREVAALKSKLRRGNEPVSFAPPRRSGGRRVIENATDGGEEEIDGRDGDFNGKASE", "UniProt P06276, sequence (whole entry, looked up)": "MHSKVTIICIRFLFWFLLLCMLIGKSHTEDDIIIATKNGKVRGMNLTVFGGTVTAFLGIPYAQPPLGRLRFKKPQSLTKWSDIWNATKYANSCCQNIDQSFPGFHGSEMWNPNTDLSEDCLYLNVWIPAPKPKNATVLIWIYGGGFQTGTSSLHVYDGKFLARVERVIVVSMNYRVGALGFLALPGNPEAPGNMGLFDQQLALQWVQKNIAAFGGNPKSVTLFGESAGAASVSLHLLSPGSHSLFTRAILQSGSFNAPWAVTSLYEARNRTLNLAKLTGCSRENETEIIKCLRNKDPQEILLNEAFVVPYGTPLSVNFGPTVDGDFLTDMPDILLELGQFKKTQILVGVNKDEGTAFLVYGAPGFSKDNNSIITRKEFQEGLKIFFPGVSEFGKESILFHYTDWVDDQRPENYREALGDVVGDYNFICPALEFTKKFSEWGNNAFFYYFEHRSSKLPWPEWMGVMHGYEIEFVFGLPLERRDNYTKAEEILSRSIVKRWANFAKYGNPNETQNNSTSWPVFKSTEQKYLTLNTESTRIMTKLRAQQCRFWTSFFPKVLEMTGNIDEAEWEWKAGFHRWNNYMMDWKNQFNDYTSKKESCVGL", "UniProt P35462, sequence (whole entry, looked up)": "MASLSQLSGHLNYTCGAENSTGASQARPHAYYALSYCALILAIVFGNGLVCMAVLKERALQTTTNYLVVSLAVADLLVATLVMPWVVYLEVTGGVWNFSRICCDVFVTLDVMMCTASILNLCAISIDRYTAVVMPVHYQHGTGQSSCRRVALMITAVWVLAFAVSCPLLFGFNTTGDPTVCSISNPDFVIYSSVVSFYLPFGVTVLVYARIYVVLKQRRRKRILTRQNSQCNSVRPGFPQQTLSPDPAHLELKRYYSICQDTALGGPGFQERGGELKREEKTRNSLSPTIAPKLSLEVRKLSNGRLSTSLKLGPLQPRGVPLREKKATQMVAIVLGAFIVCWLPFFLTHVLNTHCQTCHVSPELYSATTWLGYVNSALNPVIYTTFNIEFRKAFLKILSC", "UniProt P04756, sequence (whole entry, looked up)": "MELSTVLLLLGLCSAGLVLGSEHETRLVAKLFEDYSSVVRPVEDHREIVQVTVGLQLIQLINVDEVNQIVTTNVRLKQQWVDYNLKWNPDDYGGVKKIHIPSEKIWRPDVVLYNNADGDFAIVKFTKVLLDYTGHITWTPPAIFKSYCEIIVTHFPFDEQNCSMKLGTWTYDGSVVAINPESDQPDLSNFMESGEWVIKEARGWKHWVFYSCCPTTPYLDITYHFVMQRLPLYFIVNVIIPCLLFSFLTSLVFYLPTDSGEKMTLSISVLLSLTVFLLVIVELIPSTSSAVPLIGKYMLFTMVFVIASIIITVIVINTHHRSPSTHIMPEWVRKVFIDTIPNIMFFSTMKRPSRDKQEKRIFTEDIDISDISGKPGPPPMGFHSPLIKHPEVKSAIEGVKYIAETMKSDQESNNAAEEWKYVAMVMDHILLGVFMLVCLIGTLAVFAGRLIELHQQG", "UniProt P02716, sequence (whole entry, looked up)": "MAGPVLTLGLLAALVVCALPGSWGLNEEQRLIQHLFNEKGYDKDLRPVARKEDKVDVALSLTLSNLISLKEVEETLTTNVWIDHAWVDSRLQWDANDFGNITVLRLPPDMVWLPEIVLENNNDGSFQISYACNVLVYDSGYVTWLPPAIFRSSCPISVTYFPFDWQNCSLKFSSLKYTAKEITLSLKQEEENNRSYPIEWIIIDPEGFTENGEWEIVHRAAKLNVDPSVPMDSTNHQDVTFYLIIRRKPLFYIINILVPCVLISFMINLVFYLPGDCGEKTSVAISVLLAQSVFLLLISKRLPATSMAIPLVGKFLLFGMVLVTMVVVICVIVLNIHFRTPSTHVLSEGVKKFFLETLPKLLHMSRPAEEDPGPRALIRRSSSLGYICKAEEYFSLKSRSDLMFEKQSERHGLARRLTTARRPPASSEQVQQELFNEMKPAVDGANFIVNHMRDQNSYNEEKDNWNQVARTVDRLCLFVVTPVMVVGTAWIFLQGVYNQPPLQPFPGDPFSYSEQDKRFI", "UniProt Q14973, sequence (whole entry, looked up)": "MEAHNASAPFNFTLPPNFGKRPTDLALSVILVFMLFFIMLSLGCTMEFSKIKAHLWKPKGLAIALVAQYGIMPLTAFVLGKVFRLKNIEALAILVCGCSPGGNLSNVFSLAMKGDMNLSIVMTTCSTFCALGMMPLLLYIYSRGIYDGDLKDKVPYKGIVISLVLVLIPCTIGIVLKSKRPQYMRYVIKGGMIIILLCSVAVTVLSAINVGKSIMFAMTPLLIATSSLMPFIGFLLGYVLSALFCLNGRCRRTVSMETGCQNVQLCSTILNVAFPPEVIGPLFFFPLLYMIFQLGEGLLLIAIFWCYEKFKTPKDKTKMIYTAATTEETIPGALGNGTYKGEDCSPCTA", "UniProt Q5BJF2, sequence (whole entry, looked up)": "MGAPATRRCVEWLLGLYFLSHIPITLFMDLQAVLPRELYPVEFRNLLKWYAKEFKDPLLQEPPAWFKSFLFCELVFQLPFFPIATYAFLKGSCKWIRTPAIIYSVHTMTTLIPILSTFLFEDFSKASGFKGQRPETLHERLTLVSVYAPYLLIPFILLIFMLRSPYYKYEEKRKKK"}
{"SMILES": "COc1cc2c3cc1Oc1cc(ccc1O)C[C@@H]1c4c(cc(OC)c(O)c4Oc4ccc(cc4)C[C@@H]3N(C)CC2)CC[N+]1(C)C", "target": "Chrnd/Chrna1/Chrne (Mus musculus, UniProt P02716+P04756+P20782)", "assay": "inhibitor", "test system": "mouse hemidiaphragm", "conditions": "one site per receptor model", "quantity": "Ki", "result": "~0.04 µM"}
{"SMILES": "Nc1c2c(nc3c1CCC3)CCCC2", "target": "BCHE", "assay": "inhibitor", "quantity": "IC50", "result": "0.25 ± 0.05 µM"}
{"SMILES": "CC(=O)P(=O)(O)OCCc1cn([C@H](Cc2ccccc2)C(=O)O)nn1", "target": "dxs (Pseudomonas aeruginosa, UniProt Q9KGU7, R482A)", "assay": "inhibitor", "quantity": "Ki", "result": "15 ± 3 µM"}
{"SMILES": "O=C1NCc2c1c1c3ccccc3[nH]c1c1[nH]c3ccccc3c21", "target": "BCHE", "assay": "inhibitor", "quantity": "IC50", "result": "1.66 ± 0.11 µM"}
{"SMILES": "CC(C)=CCN=C(N)N", "target": "speB (Escherichia coli, UniProt P60651)", "assay": "competitive inhibitor", "conditions": "pH 7.5, together with: agmatine", "quantity": "Ki", "result": "7.48 ± 2.12 µM"}
{"SMILES": "C#CCSCC(=O)O", "target": "putA (Sinorhizobium meliloti, UniProt F7X6I3)", "quantity": "Ki", "result": "1030 ± 90 µM"}
{"SMILES": "O=C(O)C(F)(F)C(F)(F)C(F)(F)C(F)(F)C(F)(F)C(F)(F)C(F)(F)C(F)(F)C(F)(F)C(F)(F)C(F)(F)C(F)(F)C(F)(F)F", "target": "Sterol carrier protein 2", "assay": "binder, NBD-stearic acid displacement fluorescence", "conditions": "recombinant protein", "quantity": "Ki", "result": "3.3 ± 0.31 µM"}
{"SMILES": "Cc1ccc2cc(N3CCC4(O)C(=O)c5cc(C)c(C)cc5N=C34)ccc2n1 (stereo not drawn)", "target": "MYH11 S1 fragment", "assay": "ATPase activity, inhibitor", "quantity": "Ki", "result": "17 µM"}
{"SMILES": "C#C[C@@H](C)NCC(=O)O", "target": "putA, PRODH domain (Sinorhizobium meliloti, UniProt F7X6I3, del84-189)", "assay": "inhibitor", "quantity": "Ki", "result": "8700 ± 500 µM"}
{"SMILES": "O=C[C@H](O)COP(=O)(O)O", "target": "dxs (Pseudomonas aeruginosa, UniProt Q9KGU7)", "quantity": "Ki", "result": "7300 ± 2800 µM"}
{"SMILES": "Cc1ccc2c(c1)C(=O)C1(O)CCN(c3ccccc3)C1=N2 (stereo not drawn)", "target": "MYH11 S1 fragment", "assay": "ATPase activity, inhibitor", "quantity": "Ki", "result": "3.2 µM"}
{"SMILES": "CN[C@H](CC(C)C)C(=O)N[C@H]1C(=O)N[C@@H](CC(N)=O)C(=O)N[C@H]2C(=O)N[C@H]3C(=O)N[C@H](C(=O)N[C@H](C(=O)O)c4cc(O)cc(O)c4-c4cc3ccc4O)[C@H](O)c3ccc(c(Cl)c3)Oc3cc2cc(c3O[C@@H]2O[C@H](CO)[C@@H](O)[C@H](O)[C@H]2O[C@H]2C[C@](C)(N)[C@H](O)[C@H](C)O2)Oc2ccc(cc2Cl)[C@H]1O", "target": "Hepatic sodium/bile acid cotransporter (SLC10A1, Homo sapiens, UniProt Q14973)", "assay": "taurocholate uptake, inhibitor", "test system": "NTCP-expressing HEK293", "conditions": "together with: 10 µM taurocholate", "quantity": "Ki", "result": "488 ± 398 µM"}
{"SMILES": "CCCCOP(=O)(O)C(C)=O", "target": "dxs (Pseudomonas aeruginosa, UniProt Q9KGU7, R106A)", "assay": "inhibitor", "quantity": "Ki", "result": "20.7 ± 0.8 µM"}
{"SMILES": "O=C(O)C(F)(F)C(F)(F)C(F)(F)C(F)(F)C(F)(F)C(F)(F)C(F)(F)F", "target": "Sterol carrier protein 2", "assay": "binder, NBD-stearic acid displacement fluorescence", "conditions": "recombinant protein", "quantity": "Ki", "result": "> 64 µM"}
{"SMILES": "O[C@@H](CCCN1CCC(O)(c2ccc(Cl)cc2)CC1)c1ccc(F)cc1", "target": "D(3) dopamine receptor (DRD3, Homo sapiens, UniProt P35462)", "quantity": "Ki", "result": "6.28 ± 0.507 µM"}
{"SMILES": "CCc1c(-c2ccccc2)c(-c2ccccc2)nn1-c1ccccc1-c1cccc(OCC(=O)O)c1", "target": "Fatty acid-binding protein, brain (Homo sapiens, UniProt O15540)", "assay": "binding, radioligand competition", "conditions": "37 °C, delipidated protein 2.5 µM, together with: [3H]oleic acid", "quantity": "Ki", "result": "0.19 µM"}
{"SMILES": "OC(CCN1CCCCC1)(c1ccccc1)C1CCCCC1 (stereo not drawn)", "target": "Sigma intracellular receptor 2 (TMEM97, Homo sapiens, UniProt Q5BJF2)", "assay": "binding", "quantity": "Ki", "result": "1.91 µM"}
{"SMILES": "O=C(O)C(F)(F)C(F)(F)C(F)(F)C(F)(F)C(F)(F)C(F)(F)C(F)(F)C(F)(F)C(F)(F)C(F)(F)F", "target": "Sterol carrier protein 2", "assay": "binder, NBD-stearic acid displacement fluorescence", "conditions": "recombinant protein", "quantity": "Ki", "result": "3.7 ± 0.14 µM"}
{"note": "Some of these lines once more:"}
{"SMILES": "CCCCOP(=O)(O)C(C)=O", "target": "dxs (Pseudomonas aeruginosa, UniProt Q9KGU7, R106A)", "assay": "inhibitor", "quantity": "Ki", "result": "20.7 ± 0.8 µM"}
{"SMILES": "O=C(O)C(F)(F)C(F)(F)C(F)(F)C(F)(F)C(F)(F)C(F)(F)C(F)(F)F", "target": "Sterol carrier protein 2", "assay": "binder, NBD-stearic acid displacement fluorescence", "conditions": "recombinant protein", "quantity": "Ki", "result": "> 64 µM"}
{"SMILES": "O[C@@H](CCCN1CCC(O)(c2ccc(Cl)cc2)CC1)c1ccc(F)cc1", "target": "D(3) dopamine receptor (DRD3, Homo sapiens, UniProt P35462)", "quantity": "Ki", "result": "6.28 ± 0.507 µM"}
